Experimental data of several laboratories.
A part holds a random share of what one study measured. Changes are numbered by the printed parent chain.

Sample 1
Target: Sal-like protein 4, full length isoform A (SALL4, Homo sapiens, UniProt Q9UJQ4, residues 1-1053)
Chain of UniProt Q9UJQ4 (whole entry, looked up): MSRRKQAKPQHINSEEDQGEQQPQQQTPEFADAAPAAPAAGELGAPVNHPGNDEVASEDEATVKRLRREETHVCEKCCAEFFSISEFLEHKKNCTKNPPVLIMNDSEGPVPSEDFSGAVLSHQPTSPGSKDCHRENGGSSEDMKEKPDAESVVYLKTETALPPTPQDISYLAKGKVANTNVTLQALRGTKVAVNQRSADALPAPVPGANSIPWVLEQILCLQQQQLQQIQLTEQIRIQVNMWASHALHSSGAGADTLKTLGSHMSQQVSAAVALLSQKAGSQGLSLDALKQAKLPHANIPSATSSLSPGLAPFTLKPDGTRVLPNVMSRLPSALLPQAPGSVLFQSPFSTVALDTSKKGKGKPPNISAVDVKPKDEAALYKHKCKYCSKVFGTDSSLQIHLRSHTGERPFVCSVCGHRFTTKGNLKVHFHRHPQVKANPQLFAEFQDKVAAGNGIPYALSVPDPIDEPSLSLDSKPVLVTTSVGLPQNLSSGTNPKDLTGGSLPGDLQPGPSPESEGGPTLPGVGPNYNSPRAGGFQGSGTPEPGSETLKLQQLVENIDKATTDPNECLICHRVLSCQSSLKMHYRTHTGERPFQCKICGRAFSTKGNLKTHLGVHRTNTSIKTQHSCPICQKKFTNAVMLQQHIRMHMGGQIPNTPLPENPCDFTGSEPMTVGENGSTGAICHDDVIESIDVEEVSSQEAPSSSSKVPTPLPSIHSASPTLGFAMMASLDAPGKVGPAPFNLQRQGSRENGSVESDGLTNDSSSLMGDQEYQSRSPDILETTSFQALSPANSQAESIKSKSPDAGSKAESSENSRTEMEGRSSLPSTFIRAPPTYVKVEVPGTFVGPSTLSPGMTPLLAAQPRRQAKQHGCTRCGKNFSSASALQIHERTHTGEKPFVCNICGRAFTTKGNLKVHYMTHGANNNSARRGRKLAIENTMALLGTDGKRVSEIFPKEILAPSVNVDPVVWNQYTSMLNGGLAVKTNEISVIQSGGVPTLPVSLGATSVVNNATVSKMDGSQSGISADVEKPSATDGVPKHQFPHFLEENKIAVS
Method: universal PBM
Molecule type: double-stranded DNA, one strand shown
Sample: in vitro
Tested at: 600 nM
Setting: 8-mer, flanks averaged, mean of replicates
Direction: higher = stronger binding
| Sequence | E-score |
| --- | --- |
| AAAATACT | 0.292 |
| CCTTGCCC | -0.18 |
| CAGGCGAA | -0.0285 |
| CAACGTCC | -0.233 |
| ACGTAAGA | 0.203 |
| AACGTTTG | 0.0675 |
| CAATTGCC | 0.0722 |
| CAAAGCGG | -0.117 |
| AACCACGC | -0.232 |
| CATGAGTA | 0.0579 |
| ATAAAAAT | 0.404 |
| CAACTGGG | -0.28 |
| CGAATCAC | 0.00323 |
| CTACGTGA | -0.169 |
| ACTAGTAC | 0.0257 |
| AACGATAG | 0.208 |
| AAGGCTAC | -0.00518 |
| CGACTGAG | -0.241 |

Sample 2
Target: Ras GTPase-activating protein-binding protein 1, C-terminal RGG region (G3BP1, Homo sapiens, UniProt Q13283)
Chain of UniProt Q13283 (whole entry, looked up): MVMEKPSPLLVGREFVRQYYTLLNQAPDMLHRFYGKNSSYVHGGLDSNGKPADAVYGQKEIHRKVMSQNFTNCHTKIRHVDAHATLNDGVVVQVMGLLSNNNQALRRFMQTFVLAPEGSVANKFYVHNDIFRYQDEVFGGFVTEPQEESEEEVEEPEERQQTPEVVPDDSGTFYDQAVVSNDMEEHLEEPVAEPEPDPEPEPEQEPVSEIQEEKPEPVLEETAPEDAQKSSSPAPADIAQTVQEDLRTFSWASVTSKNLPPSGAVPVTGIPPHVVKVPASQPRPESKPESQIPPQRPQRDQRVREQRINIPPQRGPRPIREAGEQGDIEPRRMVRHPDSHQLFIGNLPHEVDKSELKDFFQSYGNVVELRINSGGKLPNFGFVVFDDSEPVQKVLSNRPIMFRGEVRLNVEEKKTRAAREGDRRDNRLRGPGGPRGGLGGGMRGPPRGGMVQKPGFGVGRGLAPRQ
Method: RNA Bind-n-Seq
Molecule type: RNA
Sample: in vitro
Tested at: 1 µM
Setting: whole 134-nt RNA, ends assumed
Added: 150 mM KCl
Reference: input library
Direction: higher = stronger binding
Constant ends, left off below: GGGAGUUCUACAGUCCGACGAUC … UGGAAUUCUCGGGUGUCAAGG
| Sequence | log2 enrichment |
| --- | --- |
| CUCAAGUCCUGUGCUACACAUCGUAUGUACCGAAUCGGGUGGGGUGGGGUGGGAAAGUAUUAUGUUACGCCGUUCGGAUCUGCACUUCCA | 2.06 |
| GUCCUGUGCUACACAUCGUAUGUACCGAAUCGGGGAAAAAAAGGGGAAAGGGGUGGGGAAAGUAUUAUGUUACGCCGUUCGGAUCUGCAC | 2 |
| CUGUGCUACACAUCGUAUGUACCGAAUCGGAAAAAAAGGGGAAAAAAAGGGGAAAAAAAGGGAAAGUAUUAUGUUACGCCGUUCGGAUCU | -1.1 |
| UACCAUGGUGGAAGUUCCCGUUCUCGUAGCAGUAUUUUCCAUGCAGGAAAAAGCCAAGGACUACAUGAAAACAACAUACCUGACAAUGAA | -0.468 |
| GCAGGUAGUAAAAACAAAUGGAAAUGCUUCGGAUAGUGGCAGGGGUGGGGGUUGCUAAGGAAAGGGUGGGAUGGGAGUGGGUAAAGAGUU | 1.61 |
| AGUCCUGUGCUACACAUCGUAUGUACCGAAUCGGGAGGGAAAAAGGGAAAAAAAGGGAAAGUAUUAUGUUACGCCGUUCGGAUCUGCACU | -0.15 |
| AAGUCCUGUGCUACACAUCGUAUGUACCGAAUCGGGAAAAGGAAAAGGGGAAAAGGGAAAGUAUUAUGUUACGCCGUUCGGAUCUGCACU | -1.18 |
| UGUCCCUGACUCUCCAUUUCCCCAUCUGAGUGGAUUUGGACCUAAUAGGGCACUGGAGCUGGUUCGAAUCCUGACUGGACUACUUGGCAA | 0.0244 |
| UGCACACCGCCUUGCACAUAGCAGAGGCUCCGGGCUCACUCCUUCCUGGUGGGAAAGGAAGAUGCCUGUCCUCUCCGUGGAAGACCCUGG | -1.51 |
| AGUCCUGUGCUACACAUCGUAUGUACCGAAUCGGAAAAAGGGAAAAAGGGAAAAAGGGAAAGUAUUAUGUUACGCCGUUCGGAUCUGCAC | -1.72 |
| CAAGUCCUGUGCUACACAUCGUAUGUACCGAAUCGGGAAAGGGUGGGUUUUUGGGAAAGUAUUAUGUUACGCCGUUCGGAUCUGCACUUC | 1.52 |
| UCCUGUGCUACACAUCGUAUGUACCGAAUCGGGGAAAAAGGGGUGGGGUUUUUUUGGGGAAAGUAUUAUGUUACGCCGUUCGGAUCUGCA | 1.43 |
| CUGUGCUACACAUCGUAUGUACCGAAUCGGGGUUUUUUUGGUUUUUUUGGUUUUUUUGGGGAAAGUAUUAUGUUACGCCGUUCGGAUCUG | -1.61 |
| GAUUCCCUCCACAUGCUGCACGCGCAUCUCGCCCCCAGGGGCACUGCCUGGAAGAUUCAGGAGCCUGGGCGGCCUUCGCUUACUCUCACC | 0.102 |

Sample 3
Target: Interferon regulatory factor 7, full length, phosphomimetic (IRF7, Homo sapiens, UniProt Q92985, residues 1-503, S101K/S471D/S472D/S475D/S476D/S477D/S483D/S484D/S487D)
Chain of UniProt Q92985 (whole entry, unmodified, looked up): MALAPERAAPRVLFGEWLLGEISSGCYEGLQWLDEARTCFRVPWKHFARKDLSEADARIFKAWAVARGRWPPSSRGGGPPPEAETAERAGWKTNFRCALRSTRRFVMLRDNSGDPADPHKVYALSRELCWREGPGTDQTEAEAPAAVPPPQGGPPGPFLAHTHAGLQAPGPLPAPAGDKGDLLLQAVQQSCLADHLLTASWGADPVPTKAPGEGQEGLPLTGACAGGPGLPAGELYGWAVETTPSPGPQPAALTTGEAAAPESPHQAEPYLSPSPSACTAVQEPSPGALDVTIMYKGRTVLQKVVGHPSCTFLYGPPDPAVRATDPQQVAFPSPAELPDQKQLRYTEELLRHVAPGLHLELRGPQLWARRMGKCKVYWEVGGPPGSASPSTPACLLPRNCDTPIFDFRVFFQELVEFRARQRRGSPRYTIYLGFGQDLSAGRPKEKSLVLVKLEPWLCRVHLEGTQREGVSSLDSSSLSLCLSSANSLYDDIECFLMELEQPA
Method: protein-binding microarray
Molecule type: double-stranded DNA, one strand shown
Sample: in vitro
Tested at: 250 nM
Setting: 60-bp whole probe
Added: salmon DNA 0.4 mg/ml
Reference: random background probes
Direction: higher = stronger binding
Constant ends, left off below: GCCTAGCAC … GTCTTGATTCGCTTGACGCTGCTG
| Sequence | log fluorescence [z-score] |
| --- | --- |
| TCAGCTCTGTGCATAGTACTGTGCTAG | -0.794 |
| GACGGACTGGGTATCGTGACGTGCTAG | -0.463 |
| GACGGTTTCATTTCCCTGACGTGCTAG | 5.66 |
| TTAGATTTCAGTATCGGTTAGTGCTAG | 1.28 |
| TTAGATTCCAGTCTCGATTAGTGCTAG | 3.39 |
| TTAGCTTTCGGGTATCGGTTAGTGCTA | 1.51 |
| TTAGAACTGAGTTTCGGTTAGTGCTAG | 7.79 |
| AGCCAGGCAACCTATGGCCTGTGCTAG | -1.53 |
| ACTAGTTTCCATTTTCAGAAGTGCTAG | 9.82 |
| GACGGTTTCGACACAGGGGACGTGCTA | 4.38 |
| TCAGGACTGGGGACTGGGTTAGTGCTA | -0.692 |
| TTAGGTCGCCTTTTCCTTTAGTGCTAG | 0.601 |
| GACGGTATCGGGACTGGCGACGTGCTA | -0.367 |
| AGGGAGGTCTCTCCCGACCTGTGCTAG | -0.867 |
| GACGGACTGGGACTGGGCACGTGCTAG | -0.573 |
| TACGATTTCAGTCTCGAGACGTGCTAG | 0.952 |
| TTAGGATTGCTACTGCTTTAGTGCTAG | -0.496 |
| TTAGGTTTCGTGTTTCGGTTAGTGCTA | 11.4 |
| TCACTTTTCACTTTACAACTGTGCTAG | 2.79 |
| GACGGTCTCGGTATAGGGACGTGCTAG | 1.56 |
| GCTGTTCTCAGACTGGGTGCGTGCTAG | 0.785 |
| GTTTATTTATTTTTACATTAGTGCTAG | 1.46 |
| TTGGGTTTCGGTTCCGGTTAGTGCTAG | 11.6 |

Sample 4
Target: CCNB1, cyclin fold, Cln2 fusion (human)
Method: yeast growth competition, sequencing
Sample: yeast
Setting: weak parent motif
Reference: not given
Direction: higher = stronger binding
Starting sequence: SCAPER docking peptide (human); SNARRSLNFGGST
| Substitution | normalised enrichment score |
| --- | --- |
| R4G | 0.63 |
| R5H | 0.584 |
| L7K | 0.931 |
| R4A | 0.278 |
| T13W | 0.666 |
| R4I | 0.762 |
| G10R | 0.27 |
| L7H | 0.815 |
| S12N | 0.996 |
| R4D | 0.318 |
| N8D | 0.679 |
| G10I | 0.491 |
| N2R | 0.259 |
| R4L | -0.227 |
| A3E | 0.244 |
| R5P | -0.0877 |
| S6V | 0.366 |
| N2W | 0.379 |
| S1C | 0.508 |
| L7S | 1 |
| N8P | 0.477 |
| L7P | 0.266 |
| R4C | 0.301 |
| R4P | -0.544 |

Sample 5
Target: Histone acetyltransferase KAT6A, winged helix 2, GST fusion (KAT6A, Homo sapiens, UniProt Q92794, residues 85-181)
Method: protein binding microarray
Molecule type: double-stranded DNA, one strand shown
Sample: in vitro
Tested at: not given
Setting: 8-mer, flanks averaged, mean of 2 arrays, mostly near background
Reference: not given
Direction: higher = stronger binding
Target sequence (chain): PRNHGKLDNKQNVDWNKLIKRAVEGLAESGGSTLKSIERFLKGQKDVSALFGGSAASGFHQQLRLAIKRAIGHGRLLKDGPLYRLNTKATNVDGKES
| Sequence | E-score |
| --- | --- |
| GCCAGCGC | 0.0463 |
| CTAATGAC | -0.226 |
| AGCGACAA | 0.0571 |
| GGTCATAA | 0.0503 |
| AGTCCGCC | 0.0838 |
| AATTTAGT | 0.0289 |
| GCGCCGCA | 0.113 |
| TGATCTAA | 0.161 |
| CGTTTTCC | -0.16 |
| TAAGGCTA | -0.237 |
| CACTAGGA | -0.0831 |
| AGATTCCA | -0.0563 |
| CGACTGTA | -0.192 |
| AGTGTGGA | -0.0894 |
| AGAGCGTG | 0.0276 |
| AAATGAGA | -0.08 |
| ATACCATA | -0.0759 |
| AGGAGACA | 0.0285 |
| ATGAGTTC | -0.124 |
| GGCCGTTA | -0.0164 |
| ATCGGAGC | 0.039 |
| CTTTGCAA | 0.196 |
| ACCTATAC | -0.177 |
| GTACTAAA | 0.00596 |
| CCTCAGTA | -0.108 |

Sample 6
Target: RNA binding protein fox-1 homolog 2, RRM domain, GST-SBP tag (RBFOX2, Homo sapiens, UniProt O43251-10, residues 100-194)
Method: RNA Bind-n-Seq
Molecule type: RNA
Sample: in vitro
Tested at: 365 nM
Setting: natural RNA segment, single round, ends assumed
Reference: no-protein control
Direction: higher = stronger binding
Constant ends, left off below: GGGAGUUCUACAGUCCGACGAUC … UGGAAUUCUCGGGUGCCAA
Construct (chain): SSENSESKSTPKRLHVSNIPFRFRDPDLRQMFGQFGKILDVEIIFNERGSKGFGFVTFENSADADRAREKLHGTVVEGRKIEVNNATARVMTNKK
| Sequence | RBNS enrichment (R) |
| --- | --- |
| AUCUUAACCGAUUUCUUGAACAGUGUUUAAGUACAGUGUGAUUUGUGCCCCGAGACAGUCAGAACAGAGUGUGUGUGCUCGUCCGACUGACAGACAGACAGGCAGGCAGG | 0.344 |
| CAGCCAUUCUUCCUGCUUCUGGCCUCGGAGCUGCUUGUCUCCAGAUGCCCUCCUGAAACCAUGAGAAGCUUCAGCCUUGCCUCACUGGCUUCCCCAUCUGACCCCACCAG | 1.27 |
| CACAGCUAGCUCUAUAUUCUCUCUGUGGAGUCCCAACACAUGGAGCUCAACUACACAAUAUAAGGCAGACCAACCAAUACAUGCCUGUCAUUCACGUGUCCUUUCAUGUG | 0.224 |
| UGAGGAGGUUUUUCCUUAUUGUAUAAAUGAAUAUUUGUAUGAUUAAAUUAACACACACACCAAAAAAGCUGUUUUCAUGUGUGUUGGUGAGUUUUAUUGCACCCUCAAGC | 0.691 |
| ACGAAUGUACCGCCAGUAUUAUCAGCAGUCAACAAGCACCUUCCUCUCCACAGAAGCAGCUGGAAGAGAACUCGAGGGGCUGUGCUGCAGGCCUCCCCUCGAAAGACACU | 0.48 |
| AGUAACUCACCUUUAAAACAACAGGCUCUGAUUUGCUGAAGAGGUUUGGUAUUUUUUAAGGUAUGUCUCCCUGUUUGCACUCAGGGUUAAAGUGUCAGACUAAAUUUUUA | 0.565 |
| CACAUUCUUUGAUUUGACAUUGAUGUCAUCUUACAGGGCUGCGCUUGCUGGGCAUGCUUUUAAGUCUGUGAGAUCAUUUUGCUUCAUUAAGUUGACCAUUCUUUUUGUUU | 1.46 |
| AAAAUGCCCCAAACUCCAAGGCAGAUUGUCUGUAUAAUACGCUAUAGCUUUUCACCAUGUGGUGUUUACCAGCUGUUACUCUGUAUUUUAAAAAGCCAGAGAUUUCUUCU | 0.432 |
| AUGUUUGGUUCAUUUGAAAUUUUGGAAUAAUUGUGAAUGUAUGAUAUUGUAAAAUUAAAAAAAUAUAUAGAACUGUCCCUUAAUCAUAUUGACGUUAUAACUGGGCUUCA | 1.71 |
| AGUGGAGACUCCCAUCUUUGGGGAAGCAUAUAUGCUCAAGCGCCUCUACAAAGACAUUCCCUGGCAGUAAGAAAUGCUGAAAUGCUUUUUGUUGGUUUUGAAACACUCCC | 0.453 |
| UUAGACAGUGCACAUGCUGUUAGGGCUGUCACUAGGGAGUGGCCUUCAUGGAGGGUGGUAACAGCACCUCAGUCCAGCCAAAAUGUUUAGAAACACUCAGUCUCUGGUCC | 0.811 |
| AAGGAGUGGGGCAGGAAGGGUCUCCCAGGCACGCUGUGCUCACCCCCAGGGCCACAUCUCAGCUCUCCAGCCCUGGAUUCUUUCCUGUCUUCAUUUUAUGAGUUGUUGCC | 0.584 |

Some of these lines once more (sample 3):
| Sequence | log fluorescence [z-score] |
| --- | --- |
| TTAGGTCGCCTTTTCCTTTAGTGCTAG | 0.601 |
| GACGGTATCGGGACTGGCGACGTGCTA | -0.367 |
| AGGGAGGTCTCTCCCGACCTGTGCTAG | -0.867 |
| GACGGACTGGGACTGGGCACGTGCTAG | -0.573 |
| TACGATTTCAGTCTCGAGACGTGCTAG | 0.952 |
| TTAGGATTGCTACTGCTTTAGTGCTAG | -0.496 |
| TTAGGTTTCGTGTTTCGGTTAGTGCTA | 11.4 |
| TCACTTTTCACTTTACAACTGTGCTAG | 2.79 |
| GACGGTCTCGGTATAGGGACGTGCTAG | 1.56 |
| GCTGTTCTCAGACTGGGTGCGTGCTAG | 0.785 |
